Published values pooled from the literature.
Each line is one published result; not all experiments were run side by side. Numbers after ± are the reported error. ≈ marks a conversion by molar mass, not a printed value.

`CC(=O)N[C@H](CSSC[C@H](N)C(=O)O)C(=O)N[C@H](C)C(=O)N[C@H](CCCNC(=N)N)C(=O)N[C@H](CCCNC(=N)N)C(=O)N[C@H](CCCNC(=N)N)C(=O)N[C@H](C)C(=O)N[C@H](CCCNC(=N)N)C(N)=O` gave a Vd of 136 L (male human, plasma; intravenous, 2 mg, single dose, healthy volunteers).
`COC(=O)c1ccc(-c2cn(Cc3cc(Cl)ccc3O[11CH3])nn2)cc1` — result for “distribution volume VT”: 0.476 mL/cm³ (PET, 2TCM; rhesus macaque, hippocampus; dose not given).
The solubility of `CC(C)=CCC[C@](C)(O)[C@H]1CC[C@]2(C)[C@@H]1[C@H](O)C[C@@H]1[C@@]3(C)CC[C@H](O)C(C)(C)[C@@H]3CC[C@]12C` is reported as 6.87 ± 0.38 mg/mL (≈ 14.9 mM) (Lauroglycol CC; 72 h, 25 °C).
For `Cc1ccc(OCC(=O)N(Cc2cccs2)c2ccn[nH]2)cc1`, “relative peak area” read 7.67% (LC-MS extracted ion chromatogram; dog liver microsomes; 10 µM, 60 min; baseline: parent at time 0 min).
The tissue uptake of `OCc1cn(Cc2ccc(-c3noc(-c4ccc(OCC[18F])c(C(F)(F)F)c4)n3)cc2)nn1` is reported as 0.59 ± 0.05 %ID/g (female Lewis rat, muscle; intravenous, 30 min).
`C[C@H]1Nc2nc(=O)c3[nH]ccc3n2Cc2ccc(Cl)cc21` — result for exposure ratio: “not detected” (rat, male, plasma; 125 mg/kg; baseline: rat over human 10 mg).
`COc1cc(NC(C)=O)c2c(c1O)-c1c(OC)c(OC)cc3c1C(C2)N(C)CC3` (stereo not drawn) gave a remaining compound of 92.3 ± 2.4% (rat kidney homogenate; 100 µg/mL, 24 h, room temperature, post-preparative storage).
`[11CH3]c1ccc2nc(C3CCC3)n(-c3ccc4[nH]ncc4c3)c2n1` has an absorbed dose of 3.6 µSv/MBq (extrapolated from mouse biodistribution; human female, osteogenic cells).
`COc1ccc2cc(-c3ccc(-c4ccc(C)cn4)nc3)oc2c1` — result for “fluorescence quantum yield”: 0.84 (hexanes; added: quinine bisulfate reference).
`CC(C)c1cnc(-c2cc(Cl)ccc2F)cc1Nc1ccncc1C(=O)NC(CO)CO`: “patients with related SAE” 0% (item: hepatic haemorrhage; human patients; oral, dose not given, grade 1).
`O=C(O)C1OC(OC2CCC(C(O)CC3c4c(F)cccc4-c4cncn43)CC2)C(O)C(O)C1O` (stereo not drawn) — result for “total excretion urine plus faeces”: 8.74% (human, urine and faeces; oral, 200 mg, [14C]-navoximod dosed; baseline: dose).
For `CCN1/C(=C/C=C2\CCCC(/C=C/C3=[N+](CC)c4ccccc4C3(C)C)=C2NCCCCCCCCN2CCC(Nc3nc4ccccc4n3Cc3ccc(F)cc3)CC2)C(C)(C)c2ccccc21`, “aggregate particle size range” read 200 to 1000 nm (dynamic light scattering; saline and PBS, various pH).
`CN1CCC[C@]1(C)/C=C/S(=O)(=O)NC(=O)Nc1c2c(cc3c1CCC3)CCC2` gave a half-life of 5.7 h (human, plasma; oral, 400 mg, single dose, healthy volunteers).
`CC[C@H](C)[C@H](NC(=O)[C@@H]1CCCN1C(=O)CNC(=O)[C@H](Cc1ccccc1)NC(=O)[C@H](CC(N)=O)NC(=O)[C@H](CC(N)=O)NC(=O)[C@H](CO)NC(=O)[C@H](CO)NC(=O)[C@H](Cc1c[nH]cn1)NC(=O)[C@@H](NC(=O)[C@H](CC(C)C)NC(=O)[C@H](Cc1ccccc1)NC(=O)[C@H](CC(N)=O)NC(=O)[C@H](C)NC(=O)[C@H](CC(C)C)NC(=O)[C@H](CCCNC(=N)N)NC(=O)[C@H](CCC(N)=O)NC(=O)[C@@H](NC(=O)[C@H](C)NC(=O)[C@@H]1CSSC[C@H](NC(=O)[C@@H](N)CCCCN)C(=O)N[C@@H](CC(N)=O)C(=O)N[C@@H]([C@@H](C)O)C(=O)N[C@@H](C)C(=O)N[C@@H]([C@@H](C)O)C(=O)N1)[C@@H](C)O)C(C)C)C(=O)N[C@@H](CC(C)C)C(=O)N[C@@H](CO)C(=O)N1CCC[C@H]1C(=O)N[C@H](C(=O)N[C@@H](CC(N)=O)C(=O)N[C@H](C(=O)NCC(=O)N[C@@H](CO)C(=O)N[C@@H](CC(N)=O)C(=O)N[C@H](C(=O)N[C@@H](Cc1ccc(O)cc1)C(N)=O)[C@@H](C)O)C(C)C)[C@@H](C)O` — result for “collision cross section”: 545 ± 14.4 Å² (ion mobility mass spectrometry; nitrogen drift gas; monomer charge +4, compact conformer).
`CCOc1ccc2c(c1)C(C)=CC(C)(C)N2c1cc(OCC)cc2c1NC(C)(C)C=C2C` gave an effective dose of at least 286 mg/kg bw/day (decreased white adipose tissue mass; male BALB/c mice; oral, diet, 90 days).
With `NCC(=O)N1CCC[C@H]1C(=O)N1C[C@H](O)C[C@H]1C(=O)O` the log beta was 24.7 (potentiometric titration; 25 °C, MA2 complex, added: Fe(III)).
For `O=S1(=O)CC2CCCCC2CS1` (stereo not drawn), the AUC(0-24h) was 3.15 ± 0.381 µg·h/mL (male Sprague-Dawley rat, plasma; oral, 9 mg/kg, formulated with β-cyclodextrin).
`CC(O)c1ccc(C2CC3(C)C(CCC3(O)C(F)(F)C(F)(F)F)C3CCC4=CC(=O)CCC4=C23)cc1` (stereo not drawn): “maximal oral bioavailability” 50% (human liver microsomes; 100 % absorption assumed).
`CC(C)(O)c1ncc([S@](N)(=O)=NC(=O)Nc2c3c(cc4c2CCC4)CCC3)s1` gave a Cmax of 3.75 µg/mL (healthy human, fasted; oral, 100 mg single dose, tablet formulation).
`Br.Br.Br.O=c1c(O)cccn1CCN1CCN(CCn2cccc(O)c2=O)CCN(CCn2cccc(O)c2=O)CC1` gave a pKa of 7.5 (potentiometric titration; hydroxypyridinone group; pKa3).
With `COc1ccc([C@@H]2CC(=O)c3c(O)cc(O[C@@H]4O[C@H](CO[C@@H]5O[C@@H](C)[C@H](O)[C@@H](O)[C@H]5O)[C@@H](O)[C@H](O)[C@H]4O)cc3O2)cc1O` the relative error was 8.49% (rat plasma; 15.62 ng/mL, 12 h, room temperature, autosampler stability; baseline: nominal concentration).
For `CCCC[C@@H]1NC(=O)[C@@H](NC(=O)[C@H](CCC(=O)O)NC(=O)CNC(=O)CN2CCN(CC(=O)O)CCN(CC(=O)O)CCN(CC(=O)O)CC2)CCCCNC(=O)C[C@@H](C(N)=O)NC(=O)[C@H](C(C)C)NC(=O)[C@@H]2CCCN2C(=O)[C@H](CCCNC(=N)N)NC(=O)CNC(=O)[C@H](Cc2c[nH]c3ccccc23)NC(=O)[C@H](CCCNC(=N)N)NC(=O)[C@@H](Cc2ccccc2)NC(=O)[C@H](Cc2c[nH]cn2)NC(=O)[C@H](CCC(=O)O)NC1=O` [gallium-67 labelled], the lung uptake was 1.49 ± 0.69 %ID/g (C57 mice, B16/F10 lung metastases; intravenous, 0.037 MBq, 4 h).
`CN1CCN(Cc2ccc([C@H]3C[C@@]4(C)[C@@H](CC[C@@]4(O)C(F)(F)C(F)(F)F)[C@@H]4CCC5=CC(=O)CCC5=C43)cc2)CC1` — result for “maximal oral bioavailability”: 57% (human liver microsomes; 100 % absorption assumed).
`CCCC[C@H](NC(=O)[C@H](CC(C)C)N(C)C(=O)CNC(=O)[C@@H](NC(=O)[C@H](Cc1ccccc1)NC(=O)[C@H](CCCCN)NC(=O)[C@@H](N)CC(=O)O)C(C)C)C(N)=O` — result for “systolic pressure decrease”: under 8% (anaesthetized spinalized rat; IV, dose not given, not significant; baseline: baseline).
For `CC12CC(c3ccc(S(C)(=O)=O)cc3)C3=C4CCC(=O)C=C4CCC3C1CCC2(O)C(F)(F)C(F)(F)F` (stereo not drawn), “dose recovered in feces” read 73.5 ± 3.7% (item: total radioactivity; human, feces; oral, 5 mg, 21 days).
The logP of `CCCNCC(=O)O` is reported as -1.85 (shake flask; water; 24 h).
`CSCOC1C(=O)C2(C)C(OCSC)CC3OCC3(OC(C)=O)C2C(OC(=O)c2ccccc2)C2(O)CC(OC(=O)C(O)C(C=C(C)C)NC(=O)OC(C)(C)C)C(C)=C1C2(C)C` (stereo not drawn) gave an AUC(0-inf) of 0.271 µg·h/mL (female Sprague-Dawley rat, plasma; intravenous, 2 mg/kg).
`Cc1ccc(OCC(=O)O)cc1` has an AUC(0-last) ratio of 3.38 (female Sprague-Dawley rat, plasma; intravenous, 1.0 mg/kg of parent drug; baseline: compound over parent drug).
Under “Kirkwood-Buff integral G1,3”, `C#CCOc1ccc(/C=C2\SC(=O)N(CC(=O)NCc3ccccc3)C2=O)cc1` is recorded as -260 cm³/mol (inverse Kirkwood-Buff integrals; binary solvent mixture; 298.15 K, mole fraction x1 0.60).
For `CCCC[C@H](NC(=O)CNC(=O)CNC(=O)CN1CCN(CC(=O)O)CCN(CC(=O)O)CCN(CC(=O)O)CC1)C(=O)N[C@H]1CC(=O)NCCCC[C@@H](C(N)=O)NC(=O)[C@H](Cc2c[nH]c3ccccc23)NC(=O)[C@H](CCCNC(=N)N)NC(=O)[C@@H](Cc2ccccc2)NC(=O)[C@H](Cc2c[nH]cn2)NC1=O` [gallium-67 labelled], “tumour to tissue ratio” read 29.7 (female C57 mice, B16/F1 melanoma; intravenous, 0.037 MBq, 4 h; baseline: tumour over liver).
Under “apparent peripheral volume (V2/F)”, `N=C(N)NCCC[C@@H]1NC(=O)[C@H](Cc2c[nH]c3ccccc23)NC(=O)[C@@H](CC2CCCCC2)NC(=O)[C@@H]2CCCN2C(=O)[C@@H](NC(=O)CCc2ccccc2)CCCNC1=O` is recorded as 0.05 µg/(ng/g) (C57BL/6J mice, spinal cord; subcutaneous, 1 mg/kg, two-compartment model).
`CC(C)[C@H](NC(=O)CNC(=O)[C@H](CCC(N)=O)NC(=O)[C@H](C)N)C(=O)O`: “volume of distribution” 2.2 L/kg (healthy volunteers, LPS endotoxaemia, plasma; intravenous, 90 mg/kg/h, 2 h infusion, geometric mean, added: LPS 2 ng/kg).
`NC[C@@H](C(=O)Nc1ccc(-c2cn[nH]c2)cc1)c1ccccc1` has a cornea score of 0 (OECD 405 eye irritation; New Zealand White rabbit, eye; topical, 0.1%, 25 h (day 2), scale 0 to 4; direction not given).
With `CCCC[C@H](NC(=O)CNC(=O)CNC(=O)CN1CCN(CC(=O)O)CCN(CC(=O)O)CCN(CC(=O)O)CC1)C(=O)N[C@H]1CC(=O)NCCCC[C@@H](C(N)=O)NC(=O)[C@H](Cc2c[nH]c3ccccc23)NC(=O)[C@H](CCCNC(=N)N)NC(=O)[C@@H](Cc2ccccc2)NC(=O)[C@H](Cc2c[nH]cn2)NC1=O` [indium-111 labelled] the urinary excretion was 88.5 ± 1.75% (C57 mouse, female, B16/F1 melanoma, urine; intravenous, 0.037 MBq, 2 h).
`C[C@H]1C[C@@H](Oc2cccc(F)n2)CCN1Cc1cnc(N[11C](C)=O)s1` gave an unchanged parent of about 50% (rhesus monkey, plasma; dose not given, 90 min, baseline, end of scan).
Under “share of total analytes in plasma”, `C[C@](C#N)(COc1cc(C#N)ccc1C(F)(F)F)NC(=O)c1ccc(S(=O)(=O)C(F)(F)F)cc1` is recorded as over 80% (calves, plasma; oral, 2.5 mg/kg of monepantel).
With `CC(C)CCN(c1nc(C#N)nc(NC2COC2)n1)C(C)c1ccc(F)cc1` (stereo not drawn) the brain concentration was 671 ng/g (female CD-1 mice; intraperitoneal, 10 mg/kg, 0.5 h).
`CNC(=O)N[C@]1(C)CCC[C@@]2(C)C3CC[C@@]4(C)C[C@]3(CCC21)CC4=O` (single isomer, unassigned) has a relative error of -2.4% (rat plasma; 1.5 ng/mL, 101 d, -80 °C, long-term storage stability; baseline: nominal concentration).
`CCCCN1C(=O)c2cccc3c(NCCCCCCCCN4CCOCC4)ccc(c23)C1=O`: “average fluorescence lifetime” 4.1 ns (aqueous medium; pH 6).
Under “free COD released”, `C1=CCCC=CCC1.F[P-](F)(F)(F)(F)F.[Pt+][c]1ccccc1P(=Nc1ccccc1)(c1ccccc1)c1ccccc1` is recorded as about 6% (NMR; DMSO-d6; 1 week).
`CC[C@H](C)[C@H](NC(=O)[C@H](CC(C)C)NC(=O)[C@H](Cc1c[nH]c2ccccc12)NC(=O)[C@H](C)NC(=O)[C@@H](NC(=O)[C@H](Cc1ccccc1)NC(=O)[C@H](CC(=O)O)NC(=O)[C@H](CCCNC(=N)N)NC(=O)[C@H](C)NC(=O)[C@H](C)NC(=O)[C@H](CC(C)C)NC(=O)[C@H](C)NC(=O)[C@H](CC(=O)O)NC(=O)[C@H](CC(C)C)NC(=O)[C@@H](NC(=O)[C@@H](NC(=O)[C@H](C)NC(=O)[C@H](CC(C)C)NC(=O)[C@H](CCC(=O)O)NC(=O)[C@H](CO)NC(=O)[C@H](CO)NC(=O)[C@H](Cc1ccccc1)NC(=O)[C@@H](NC(=O)CNC(=O)[C@H](CCC(=O)O)NC(=O)CNC(=O)[C@@H](N)Cc1c[nH]cn1)[C@@H](C)O)[C@@H](C)O)[C@@H](C)CC)[C@@H](C)CC)C(=O)N[C@@H](C)C(=O)N[C@H](C(=O)N[C@@H](CCCCN)C(=O)N[C@H](C(=O)N[C@H](C(=O)N[C@@H](CC(=O)O)C(=O)N[C@@H](CCCCN)C(=O)O)[C@@H](C)O)[C@@H](C)CC)[C@@H](C)O` gave an AUCtau of 96.6 nM·h (immunoaffinity LC-MS/MS; healthy human subjects, plasma; subcutaneous, 5 mg once weekly, day 36 after 6 doses, steady state, geometric mean).
`CC(C)[C@H](NC(=O)[C@@H]1CCCN1C(=O)[C@H](CCCNC(=N)N)NC(=O)[C@H](CS)NC(=O)[C@H](Cc1c[nH]c2ccccc12)NC(=O)[C@H](CCCNC(=N)N)NC(=O)[C@@H](Cc1ccccc1)NC(=O)[C@H](Cc1c[nH]cn1)NC(=O)[C@H](CCC(=O)O)NC(=O)[C@H](CS)NC(=O)[C@H](CS)NC(=O)[C@@H]1CC(=O)N[C@@H](CCCNC(=N)N)C(=O)NCC(=O)N[C@@H](CC(=O)O)C(=O)N[C@H](Cc2ccc(O)cc2)C(=O)N1)C(N)=O` [technetium-99m labelled] gave a tumour-to-tissue ratio of 10.6 (C57 mice B16/F1 melanoma female; iv, 2 h, added: NDP-MSH blockade; baseline: tumour over muscle).
